Measured values from different studies.
Protocols differ between the studies behind these lines. Numbers after ± are the reported error.
MAL12: Alpha-glucosidase MAL12 (MAL12, Saccharomyces cerevisiae S288c, UniProt P53341)
Urease: Urease (Canavalia ensiformis, UniProt P07374)
PDE1C: Dual specificity calcium/calmodulin-dependent 3',5'-cyclic nucleotide phosphodiesterase 1C (PDE1C, Homo sapiens, UniProt Q14123)
SNCA pre-formed fibrils: Alpha-synuclein, pre-formed fibrils (SNCA, Homo sapiens, UniProt P37840)
DNA polymerase catalytic subunit: DNA polymerase catalytic subunit (Human cytomegalovirus, UniProt P08546)
crk3 with CYC6: crk3, with CYC6 (Leishmania mexicana, UniProt O15851)
SYK tandem SH2 domains: Tyrosine-protein kinase SYK, tandem SH2 domains (SYK, Homo sapiens, UniProt P43405)

Compound	target	assay	system	setting	IC50 [µM]
COc1cc(C(c2c(O)c3ccccc3oc2=O)c2c(O)c3ccccc3oc2=O)ccc1OCc1cn(CC(=O)Nc2ccccc2)nn1	MAL12	enzyme activity, inhibitor	–	–	37.1
Cc1cc(C)nc(NC(=S)N2CCN(c3ccc(C(F)(F)F)cn3)CC2)c1	HSD17B4 (Homo sapiens, UniProt P51659)	enzyme activity, inhibitor	–	–	> 57
CC1CC=CC(=O)C(O)C(O)CC2OC2c2cc(O)cc(O)c2C(=O)O1 (stereo not drawn)	MAP3K7 (Homo sapiens, UniProt O43318)	enzyme activity, inhibitor, ATP luminescence	–	–	0.08
COc1cc(O)cc(CCc2ccc(OC)c(O)c2CC=C(C)C)c1	rat intestinal maltase	inhibitor	rat intestinal acetone powder	10 min, 37 °C, added: maltose 10 mM	860 ± 90
N#Cc1cccc(-c2cc(CN3c4ccccc4C=Cc4ccccc43)on2)c1	Urease	enzyme activity, inhibitor	–	–	7.91
C#Cc1ccc2nc(C3(NC(=O)c4cc(-c5ccc(F)cc5F)on4)CCN(C(=N)c4ccc([N+](=O)[O-])o4)CC3)[nH]c2c1	STING1 (Homo sapiens, UniProt Q86WV6, H232R)	reporter gene	–	–	1.28
CC(Nc1nc2c(cnn2C(C)(C)C)c(=O)n1Cc1cccc(F)c1)c1ccccn1 (stereo not drawn)	PDE1C	enzyme activity, inhibitor, radiometric	–	–	0.0032
Brc1cccc(-c2cc(CN3c4ccccc4C=Cc4ccccc43)on2)c1	Urease	enzyme activity, inhibitor	–	–	6.77
CN1CCN(c2ccc3cc(NC(=O)Nc4cccc(C(=O)NO)c4)ccc3c2)CC1	SNCA pre-formed fibrils	binding to mouse LAG3 D1, inhibitor, ELISA	–	added: FLAG-α-syn PFFs 100 nM	4.94
CCn1nc(Cl)c2c1-c1cnc(N)c(c1)O[C@H](C)c1cc(F)ccc1-c1nn(C)cc1C2	SLK (Homo sapiens, UniProt Q9H2G2)	enzyme activity, inhibitor, radiometric	–	–	0.044
CN1CCCN(c2cnc3c(cc(C(=O)NCc4ccc(Cl)cc4)c(=O)n3CC(=O)N3CC(C)(F)C3)n2)C1=O	DNA polymerase catalytic subunit	enzyme activity	–	single determination	3.04
CCC1(CC)CC(=O)N(C2CCOc3ccc(C(=O)NC4CC(C)(C)Oc5ccccc54)cc32)C(=N)N1 (stereo not drawn)	Potassium voltage-gated channel subfamily KQT member 1, with KCNE1 (KCNQ1, Homo sapiens, UniProt P51787)	IKs current, inhibitor, automated patch clamp	HEK293	–	> 30
COc1cc(OC)c(/N=N/c2ccc(C(=O)NO)cc2F)c(OC)c1	Urease	enzyme activity, inhibitor, absorbance	–	pH 7.3	38
CCC(C)C(NC(=O)C(Cc1ccccc1)NC(=O)c1ccc(C(C)(C)C)cc1)C(=O)NC(CC(C)C)C(=O)NC(CCCCN(C)C1CC2CCC1C2)C(=O)NC(CO)C(N)=O (stereo not drawn)	Chromobox protein homolog 7 (Homo sapiens, UniProt O95931)	ligand displacement, TR-FRET	–	–	> 30
Cc1cccc(NS(=O)(=O)c2c(C)[nH]c(C)c2C(=O)N2CCCC2)c1	DRD2 (Homo sapiens, UniProt P14416)	–	–	–	> 100
NC(=O)c1cccc(-c2cnn3ccc(Nc4ccc(N5CCOCC5)cc4)nc23)c1	crk3 with CYC6	enzyme activity, inhibitor, radiometric	–	added: Leishmania major CYC6 cyclin, 1 µM ATP	0.26
CC(C)C[C@H](NC(=O)[C@H](Cc1ccc(CN)cc1)NC(=O)[C@H](Cc1ccccc1)N=[N+]=[N-])C(=O)N[C@@H](CC1CCC2CCCCC2C1)C(=O)[C@@]1(C)CO1 (stereo partly drawn)	Proteasome subunit beta type-10 (Homo sapiens, UniProt P40306)	inhibitor, biochemical	–	–	0.206
C=C(NC(=O)c1csc(-c2nc3c(cc2O)-c2nc(cs2)C(=O)NC(C(C)O)C(=O)NC(=C(C)OC)c2nc(cs2)C(=O)NC2c4nc(cs4)C(=O)NC(COC(=O)c4c5c6c(cccc6n4O)COC(=O)C(OC4CC(C)(O)C(N(C)C)C(C)O4)C2OC5)c2nc-3cs2)n1)C(N)=O (stereo not drawn)	SLCO1B1 (Homo sapiens, UniProt Q9Y6L6)	transporter uptake, inhibitor	HEK293	10 min, pH 7.4	2.8
Cn1c(=O)c2c([nH]c(=O)n2C)n(C)c1=O	SYK tandem SH2 domains	binding, inhibitor, TR-FRET	–	added: FITC-FCER1G phospho-ITAM peptide	> 100
CCN(CC)Cc1ccc2cc(NC(=O)Nc3ccc(C(=O)NO)cc3)ccc2c1	SNCA pre-formed fibrils	binding to RAGE, inhibitor, ELISA	–	added: FLAG-α-syn PFFs 100 nM	4.95

Compound	target	assay	system	setting	IC50 [µM]
CC1(F)CN(C(=O)Cn2c(=O)c(C(=O)NCc3ccc(Cl)cc3)cc3nc(N4CCN(CCN)C4=O)cnc32)C1	DNA polymerase catalytic subunit	enzyme activity	–	single determination	0.129
CCCCCCCCN(Cc1ccc(CNC(=O)OCCOC23CC4CC(C2)CC(C(N)C(=O)N2C(C#N)CC5CC52)(C4)C3)cc1)CC(O)C(O)C(O)C(O)CO (stereo not drawn)	Dipeptidyl peptidase 8 (Homo sapiens, UniProt Q6V1X1)	enzyme activity, inhibitor	–	with preincubation	1.3
CC(C)(COC(=O)/C=C/C=C/c1ccc2c(c1)OCO2)CC1=C(O)C(=O)c2ccccc2C1=O	MAL12	enzyme activity, inhibitor	–	–	12.6
CC(=O)Nc1cc(Cc2ccccc2)[nH]n1	crk3 with CYC6	enzyme activity, inhibitor, radiometric	–	added: Leishmania major CYC6 cyclin, 1 µM ATP	64
Cc1nc(S(=O)(=O)Nc2cc3c(cc2Oc2cccc(COCC(C)C)c2)n(C)c(=O)n3C)cn1C	Transcription initiation factor TFIID subunit 1-like, BD2 (TAF1L, Homo sapiens, UniProt Q8IZX4)	HTRF	–	GST-tagged protein	> 20
C[C@@]1(C(=O)O)[C@@H](O)CC[C@]2(C)c3cc4c(cc3CC[C@@H]12)[nH]c1ccc(S(=O)(=O)n2c3ccccc3c3cc5c(cc32)CC[C@H]2[C@](C)(C(=O)O)[C@@H](O)CC[C@]52C)cc14	CA1 (Homo sapiens, UniProt P00915)	enzyme activity, inhibitor, absorbance	–	–	3
CC(C)(C)n1ncc2c(=O)n(Cc3cccc(F)c3)c(NCc3ccncc3)nc21	PDE1C	enzyme activity, inhibitor, radiometric	–	–	0.0079
COc1cc(NC(=O)c2cnn(-c3ccc([N+](=O)[O-])cc3)c2C(F)(F)F)c(OC)cc1Cl	PTGS1 (Ovis aries, UniProt P05979)	enzyme activity, inhibitor	–	–	0.46
Cc1ccccc1-c1cc(CN2c3ccccc3C=Cc3ccccc32)on1	Urease	enzyme activity, inhibitor	–	–	8.64
CC(C)[C@H](NC(=O)[C@H](Cc1ccccc1)NC(=O)[C@H](CO)NC(=O)[C@@H](N)Cc1ccc(O)cc1)C(=O)N[C@@H](CO)C(=O)NCC(=O)NCC(=O)O	SUMO-activating enzyme (Homo sapiens, UniProt Q9UBE0+Q9UBT2)	SUMO thioester formation, Western blot	–	10 min, added: 1 µM SUMO	125
CCOc1cc(CN2CCC3(CC2)CN(c2ccc(C(=O)O)cc2)C(=O)N3)c(C2CC2)cc1C	SSTR5 (Homo sapiens, UniProt P35346, L174A)	cAMP level, antagonist, GloSensor	AD293	L174A mutant, bandwidth 4.60, added: CST17 EC80 and forskolin	0.0191
CCN(CC)CC(=O)Nc1cccc(-n2cc(-c3ccc4ccc(-c5cn(-c6cccc(NC(=O)CN(CC)CC)c6)nn5)cc4c3)nn2)c1	MKNK2 (Homo sapiens, UniProt Q9HBH9)	enzyme activity, inhibitor	–	–	> 10
COc1cc(OC)c(/N=N/c2ccc(C(=O)NO)cc2C(F)(F)F)c(OC)c1	Urease	enzyme activity, inhibitor, absorbance	–	pH 7.3	> 512
COc1c(NC(=O)c2ccc(NC(=O)c3ccc(NC(=O)[C@H](CC#N)NC(=O)c4ccc(NC(=O)/C(C)=C/c5ccc(O)cc5)cc4)cc3)c(OC)c2O)ccc(C(=O)O)c1O	gyrA (Escherichia coli K-12, UniProt P0AES4)	enzyme activity, inhibitor	–	–	0.11
Cc1cc(NC2CCN(C)CC2)ccc1-c1cc2c(N3CCC[C@H](C(=O)NCc4ccc(OC(F)(F)F)cc4)C3)ncnc2[nH]1	KDR (Homo sapiens, UniProt P35968)	enzyme activity, inhibitor, mobility shift	–	–	2.09
O=C1C(Cl)=C(NCCN2CCOCC2)C(=O)c2ncccc21	SETD2 (Homo sapiens, UniProt Q9BYW2)	enzyme activity, inhibitor	–	–	1.5
COc1cc(OC)c2c(=O)cc(-c3cc(C)c(OCCCN4CCN(C)CC4)c(C)c3)oc2c1	Bromodomain-containing protein 3, BD1 (BRD3, Homo sapiens, UniProt Q15059)	cell-free assay, TR-FRET	–	–	1.72
Cc1n[nH]c(=O)n1C	SYK tandem SH2 domains	binding, inhibitor, TR-FRET	–	added: FITC-FCER1G phospho-ITAM peptide	> 100
Cc1cc(C)c(CNC(=O)c2c(C)n(C(C)C3CCC(NC4(C)COC4)CC3)c3ccccc23)c(=O)[nH]1 (stereo not drawn)	Histone-lysine N-methyltransferase EZH2, PRC2 pentameric complex (EZH2, Homo sapiens, UniProt Q15910)	enzyme activity, inhibitor	–	added: H3K27me3 activating peptide	0.00019
